Experimental data of several laboratories.
Each numbered part is a random draw from the data of one study; scales do not carry over between parts.

Set 1 — method: RNA Bind-n-Seq; molecule type: RNA; sample: in vitro; tested at: 20 nM; notes: 6-mer, flanks averaged, single round; with: 150 mM LiCl; baseline: input library; direction: higher = stronger binding
Target: TAR DNA-binding protein 43, full length, His tag (TARDBP, Homo sapiens, UniProt Q13148, residues 1-414)
For `UUCCUA`, “6-mer enrichment (R)” read 0.88.
`CAUGCC` — result for “6-mer enrichment (R)”: 0.933.
`GCUUGG`: “6-mer enrichment (R)” 1.1.
For `CUGUCU`, “6-mer enrichment (R)” read 0.921.
`GACUAC`: “6-mer enrichment (R)” 0.831.
`UUUAGU`: “6-mer enrichment (R)” 1.16.
`GACCGA`: “6-mer enrichment (R)” 0.854.
`CCAAAA`: “6-mer enrichment (R)” 0.848.
`GAAUAC` — result for “6-mer enrichment (R)”: 0.81.
Under “6-mer enrichment (R)”, `AUCCUA` is recorded as 0.805.
`GAAGAC` — result for “6-mer enrichment (R)”: 0.849.
Under “6-mer enrichment (R)”, `UUUAUU` is recorded as 1.34.
Under “6-mer enrichment (R)”, `AGCGCG` is recorded as 1.05.
`AUCAUU`: “6-mer enrichment (R)” 0.931.
Under “6-mer enrichment (R)”, `GGACGU` is recorded as 1.07.
Under “6-mer enrichment (R)”, `UGCGGA` is recorded as 1.03.
For `GACUAU`, “6-mer enrichment (R)” read 0.889.
`UCCCCC` — result for “6-mer enrichment (R)”: 1.32.
Under “6-mer enrichment (R)”, `CGACUG` is recorded as 0.913.
For `ACAGUA`, “6-mer enrichment (R)” read 0.864.
`AGAGGC`: “6-mer enrichment (R)” 0.983.
Under “6-mer enrichment (R)”, `AGUCGU` is recorded as 0.937.

Set 2 — method: protein-binding microarray; molecule type: double-stranded DNA, one strand shown; sample: in vitro; tested at: 250 nM; notes: 60-bp whole probe; with: salmon DNA 0.4 mg/ml; baseline: random background probes; direction: higher = stronger binding; all sequences stand within: GCCTAGCAC … GTCTTGATTCGCTTGACGCTGCTG
Target: Interferon regulatory factor 5, full length, phosphomimetic (IRF5, Homo sapiens, UniProt Q13568-2, residues 1-514, K96S/S451D/S453D/S456D/S462D)
`TTAGGTTCCATTTTCCTTTAGTGCTAG` gave a log fluorescence of 0.914 z-score.
`TTAGATATGGGGTTTCGATTAGTGCTA` gave a log fluorescence of 5.57 z-score.
`GACGAGATCAGTCTCGAGACGTGCTAG` gave a log fluorescence of 0.101 z-score.
`GACGGTTTCGGTTCAGGGACGTGCTAG` has a log fluorescence of 9.66 z-score.
`GACGATTTCAGTCTCGAAACGTGCTAG` gave a log fluorescence of 2.1 z-score.
`TCAGGCCTCTTGCTCAGACTGTGCTAG` gave a log fluorescence of -0.688 z-score.
For `AGCCGTCTCCACCTGGGCAAGTGCTAG`, the log fluorescence was -0.599 z-score.
The log fluorescence of `GACGATTCCGGTTTCGGGACGTGCTAG` is reported as 4.57 z-score.
The log fluorescence of `GACGAGATCGGGTATCGAGACGTGCTA` is reported as 0.824 z-score.
With `TTAGAACTGATACTGGATTAGTGCTAG` the log fluorescence was 0.601 z-score.
For `TTCTATGTCTGTTTTTGCTTGTGCTAG`, the log fluorescence was 0.842 z-score.
`TTAGGAATGGACTATCGGTTAGTGCTA` has a log fluorescence of 6.04 z-score.
For `TCATCTTGCTTTTTAGAACTGTGCTAG`, the log fluorescence was 0.494 z-score.
For `GACGATCTCAGTATTGAGACGTGCTAG`, the log fluorescence was -0.0365 z-score.
With `TTAGGTTTCGGACTCGGTTAGTGCTAG` the log fluorescence was 5.21 z-score.
For `GACCATTTCGGGTTTCGAGACGTGCTA`, the log fluorescence was 4.69 z-score.
`GACGGTTTCGGGTTCGGGACGTGCTAG` has a log fluorescence of 7.03 z-score.

Set 3 — method: RNA Bind-n-Seq; molecule type: RNA; sample: in vitro; tested at: 365 nM; baseline: no-protein control; direction: higher = stronger binding
Target: RNA binding protein fox-1 homolog 2, RRM domain, GST-SBP tag (RBFOX2, Homo sapiens, UniProt O43251-10, residues 100-194)
Notes: natural RNA segment, single round, ends assumed
All sequences stand within: GGGAGUUCUACAGUCCGACGAUC … UGGAAUUCUCGGGUGCCAA
Construct (chain): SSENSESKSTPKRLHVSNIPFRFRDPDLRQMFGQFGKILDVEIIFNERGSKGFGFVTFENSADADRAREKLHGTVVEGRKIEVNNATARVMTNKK
For `GUUUAACACGAUAUCAGCACAUUCCCUUGUCAUCAUCAAGGUGUUGGCUCAGAUUUAUUCUUAAUUGGAUGUUUAAAGCAUGUACUACCUUGUUACAGUUGGUUUAGUGU`, “RBNS enrichment (R)” read 1.28.
`GCCAGCUUAUUUUUCUGGUACUUGUAUUUUCACAUGUUAAAUGAUCUUUAUAUAUGUUGAAUUAACAAAUAUUUUGAGUUUCUGAGAAAAAACAAAACAUAUUAAUGGUA` — result for “RBNS enrichment (R)”: 0.462.
Under “RBNS enrichment (R)”, `CCUUAUUAUAUUGAUACUCUUCUUGAGGAGGAAAUCUCACCUUUUCUUUUUCAAGAGAUUCUGAGGCAGUCCCCACCCAAUCCAAAUAGGUAGCUGCUUGUGCAGGUCCU` is recorded as 0.33.
`CUGGGCCCACUGGAUCCUCGACAGGAAGCCACCCUGCGUGGGGACUGCAGGCACACAAAAUAAAAUAACUCGUGCUCAUUUGGAAUGUAACUCCUGGCACAGUGUUCCUA` — result for “RBNS enrichment (R)”: 0.274.
`AAAGAUGGAUGUGAUAGUCUAUAUUUGUGUGUUUCUAAAGUUGUGUCUUGUGGGGGAAUUGGAUUCCAUUUUAGUUAUUUAAUACCUCACUCCCACCCACCUGCAUACUG`: “RBNS enrichment (R)” 0.293.
Under “RBNS enrichment (R)”, `GAUGUCUGUCUCCUUGCGUGUAGAUCCCAAAAGUGCUCUUCAGGGGUUCUGUGCUAGCUGAUGCAAGGACAUUAGCUCCAAAGGCUGGGGAGGGCUUGGCUCUCCCUCUG` is recorded as 0.303.
For `UAGGGGGGGGCGUUCAAAGGAAGCUGUUUAGCCUGACCGCAAGUACUGAAGUCUCUGCUUUCUGUCAGAAUCAACCACCGACCUUGUGCUGCAUUGGAGAUCACAUCCUU`, “RBNS enrichment (R)” read 0.66.
For `UCUGCAGGCUGAAUGCAGUCUCCAGACUGGAAACGCAGAGCGGCUCCUCACGCCUAAUCCUGUUGACAAGUCCCCCGCCGUGUUGGAAAGACCUCUCGCCUCUACGUGGC`, “RBNS enrichment (R)” read 0.307.

Set 4 — method: RNA Bind-n-Seq; molecule type: RNA; sample: in vitro; tested at: 200 nM; notes: whole 134-nt RNA, ends assumed; with: 150 mM LiCl; baseline: input library; direction: higher = stronger binding; library: 7-deaza-guanosine replaces G
Target: Ras GTPase-activating protein-binding protein 1, full length (G3BP1, Homo sapiens, UniProt Q13283)
Sequence of UniProt Q13283 (whole entry, looked up): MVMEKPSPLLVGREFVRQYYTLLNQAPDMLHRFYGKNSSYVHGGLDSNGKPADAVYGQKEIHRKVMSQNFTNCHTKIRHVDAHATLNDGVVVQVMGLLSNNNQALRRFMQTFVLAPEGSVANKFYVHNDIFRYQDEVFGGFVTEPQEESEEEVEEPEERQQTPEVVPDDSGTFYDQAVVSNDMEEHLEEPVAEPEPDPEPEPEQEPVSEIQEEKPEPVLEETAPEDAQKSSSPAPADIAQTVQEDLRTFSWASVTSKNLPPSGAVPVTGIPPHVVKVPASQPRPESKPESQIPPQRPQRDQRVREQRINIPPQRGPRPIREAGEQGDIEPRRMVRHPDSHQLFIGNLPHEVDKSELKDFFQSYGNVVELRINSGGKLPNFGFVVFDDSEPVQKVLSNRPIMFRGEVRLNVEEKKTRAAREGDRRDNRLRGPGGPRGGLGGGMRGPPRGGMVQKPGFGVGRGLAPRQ
All sequences stand within: GGGAGUUCUACAGUCCGACGAUC … UGGAAUUCUCGGGUGUCAAGG
With `GCAGGAAGUAAAAACAAAUGGAAAUGCUUCGGAUAGUGGCUGGGGUGGGGGUUGCUAAGGAAAGGGUGGGAUGGGAGUGGGUAAAGAGUU` the log2 enrichment was 0.384.
For `UCCUCAAGUCCUGUGCUACACAUCGUAUGUACCGAAUCGGAGGAGGGGAGGAAAGUAUUAUGUUACGCCGUUCGGAUCUGCACUUCCAGC`, the log2 enrichment was -1.73.
With `AAGUCCUGUGCUACACAUCGUAUGUACCGAAUCGGCCCCGGCCCCGGGCCCCGGGGAAAGUAUUAUGUUACGCCGUUCGGAUCUGCACUU` the log2 enrichment was -0.275.
`UAACUUUAGAGGAGGAUCUGAUAGAUAUGGCAGUGGACGUGGAUUUGGGGAUGGCUAUAAUGGGUAUGGAGGAGGACCUGGAGGUGGCAA` has a log2 enrichment of 0.0347.
With `UGGCCCUGGUGGCAUGCGGGGAGGAAGAGGUGGCCUCUUGGAUCGUGGUGGUCCCGGUGGAAUGUUCAGAGGUGGCCGUGGUGGAGACAG` the log2 enrichment was 0.326.
For `AGUCCUGUGCUACACAUCGUAUGUACCGAAUCGGGGCCCCGGGGCCCCGGCCCCGGGAAAGUAUUAUGUUACGCCGUUCGGAUCUGCACU`, the log2 enrichment was -0.358.
`CCUGUGCUACACAUCGUAUGUACCGAAUCGGGUUUUUGGGUUUUUUUGGGAAAAAAAGGGAAAGUAUUAUGUUACGCCGUUCGGAUCUGC` gave a log2 enrichment of -0.229.
`UCAAGUCCUGUGCUACACAUCGUAUGUACCGAAUCGGGUUGGGGUUGGGUUGGGAAAGUAUUAUGUUACGCCGUUCGGAUCUGCACUUCC` gave a log2 enrichment of -0.0388.

A few entries again (set 1):
`CAUGCC` — result for “6-mer enrichment (R)”: 0.933.
`GCUUGG`: “6-mer enrichment (R)” 1.1.
For `CUGUCU`, “6-mer enrichment (R)” read 0.921.
`GACUAC`: “6-mer enrichment (R)” 0.831.
